Published values of several laboratories.
Lines come from different studies, so protocols differ. Numbers after ± are the reported error.

The Cmax of `O[C@H]1CCCN[C@@H]1CCCn1cnc2c(Cl)c(Cl)ccc21` is reported as 239 ng/mL (healthy CYP2D6 EM and UM, plasma; oral, 150 mg single dose).
With `Cc1onc(-c2ccccc2)c1C(=O)N[C@@H]1C(=O)N2[C@@H]1SC(C)(C)[C@@H]2C(=O)O` the Cmax was about 27000 ng/mL (rabbit, serum; intramuscular, 100 mg/kg).
`CCCCCOc1ccc(-c2ccc(-c3ccc(C(=O)N[C@H]4C[C@@H](O)[C@@H](OCC[N+](C)(C)C)NC(=O)[C@@H]5[C@@H](O)[C@@H](C)CN5C(=O)[C@H]([C@@H](C)O)NC(=O)[C@H]([C@H](O)[C@@H](O)c5ccc(O)cc5)NC(=O)[C@@H]5C[C@@H](O)CN5C(=O)[C@H]([C@@H](C)O)NC4=O)cc3)cc2)cc1` has a Cmax of 17100 ng/mL (adult patients in ICU, plasma; intravenous, 400 mg loading, after first dose, median).
`Cc1ncc2n1-c1ccc(Cl)cc1C(c1ccccc1F)=NC2` gave a Cmax of 16.5 ng/mL (healthy volunteers, plasma; oral, 5 mg, day 11, added: momelotinib, once daily 200 mg, days 4-11).
With `CCN1CC2(CCN(CCc3cc(F)ccc3F)CC2)O[C@H](C)C1=O` the Cmax was 346 ± 97 ng/mL (ferret, plasma; intraperitoneal, 0.5 mg/kg).
The Cmax of `C[C@]1(CO)Cc2ncn(-c3ccc(C#N)c(Cl)c3)c2C(=O)O1` is reported as 3.82 µM (healthy Japanese adults, plasma; 80 mg once daily, after first dose, multiple dose).
`Cn1ncc(-c2nc(N[C@H]3CC[C@H](N)CC3)ncc2Cl)c1CC1CC1` has a Cmax of 120 ng/mL (HPLC-MS/MS; patients, plasma; oral, 21 mg, day 1).
`CC[C@H](C)CCCCC(=O)N[C@@H](CCN)C(=O)N[C@H](C(=O)N[C@@H](CCN)C(=O)N[C@H]1CCNC(=O)[C@H]([C@@H](C)O)NC(=O)[C@H](CCN)NC(=O)[C@H](CCN)NC(=O)[C@H](CC(C)C)NC(=O)[C@@H](Cc2ccccc2)NC(=O)[C@H](CCN)NC1=O)[C@@H](C)O` has a Cmax of 10500 ng/mL (critically ill patients, plasma; intravenous, dose not given, steady state, High AUC group, median).

Repeated from above:
The Cmax of `O[C@H]1CCCN[C@@H]1CCCn1cnc2c(Cl)c(Cl)ccc21` is reported as 239 ng/mL (healthy CYP2D6 EM and UM, plasma; oral, 150 mg single dose).
